Measurements from different studies.
Each numbered part is a random draw from the data of one study; scales do not carry over between parts.

Block 1 — technique: RNA Bind-n-Seq; molecule type: RNA; matrix: in vitro; concentration: 365 nM; relative to: no-protein control; direction: higher = stronger binding
Target: RNA binding protein fox-1 homolog 2, RRM domain, GST-SBP tag (RBFOX2, Homo sapiens, UniProt O43251-10, residues 100-194)
Notes: natural RNA segment, single round, ends assumed
All sequences stand within: GGGAGUUCUACAGUCCGACGAUC … UGGAAUUCUCGGGUGCCAA
Residues (chain): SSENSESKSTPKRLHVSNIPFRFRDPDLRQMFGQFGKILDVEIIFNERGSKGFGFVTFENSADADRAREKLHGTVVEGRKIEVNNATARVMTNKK
Oligonucleotide | RBNS enrichment (R)
AGAACUGCCCACAAAACAAGGCUGUGAACUUUUCGGGAACUGGAACUGUUUAACUUGAACCCAGGAUUGUUUAAAGCUUUAUUUAUUUAUAGCUUCUUCUUAAAAAAAAG | 0.531
CUCUGCCCUCCCUCCCCCGAAGGUCUCUGUGGUGAUGACCGCUCUCCCCUGCCCCUCCCCGCUUCCUGACCUCUGAAGAGGUUGGGAAGUGACCAUUUGGAUGUCUGGGC | 0.491
GUUCUCCAGAGUUCACCUUUCCCUUUUCCUUGAGUUGUGCUGAAUGCCCCACCCCAGCUCUCUUUCCCUUCUGGGUGUCUUUGCUGGGAGGGGGCUGUGUUGUGAGCCCU | 0.122
ACUUUUGAAAAAUUAGAAUUCCUUUGCAUUCAGCAUGGACUCAGCCAGGAAUCUAUGGAGGAUUUUUUUUUUUGCUUCAUUUUCUAAAGUUGUAUUUAGAAAUAUCUUAU | 8.71
GAUUUAACUAGUGAGAAUUGUAUUCAAGUGAACUCUGUUUUUCUGAAAAUAAAAAUAUAAACAAUGAAUACAUUUGUAAGGAUCAGCAUUUUAUUUUAUGAGUCAUUUUA | 0.899
GCCCGUUGCUGGCGAUGGGCCCAUGCCCCCUCUCCAGGCUCUCUAGAGGCAGGCAGGUCCUUGGAAUCCCCAGCCUGCAAGCAGAGGCUGGCCAGCUCCCCAGCUCAGCA | 3.13
CUAUUUUACUAGUGUUUUAUAUGAACAAAGUACUGCAGAAGUUAAACCUGUGUUGUAUUUUUUCUGAGAUGUUUUGCUUUAAGAGAUACUUUUUGCUCAGUUUUUAUAUG | 0.848
UCUCAGUCGAUGAGCCCUCGUCUGACUGACCAGAGUGGCCCAGCUUCUAUUCAAUUGGGAAAAUUUGAACCAAAGCAGAUUUCUUCAGGGCUGAGGGUCUCCAACCGAUG | 0.387
GCGUUUAUUAUACAGUGGCAGAUUUCUUUAGCUGCCACAGUAAUACUCAUUCCUUGUGUGUGUCUUGGAGUGCAUUUGACUCCAGGAAAAGCCAUUUUGGUUUUCCUUAA | 0.54
GCCCUACAGCUGCCCCGAGUGUGGCAAGUGCUAUAGCCAGAACUCGUCCCUGCGCAGUCACCAAAGGGUGCACACUGGGCAACGGCCUUUCAGCUGUGGCAUCUGUGGCA | 6.54
UUGGAGCCUAUAAUUUUUUUACCUUACAUUUUAGGUAGAAACCAAAUAAAAGAUUUUGCUAAGAAGAUGUUUUGUUUUGUGUGUGGUGCUAAGGAUUAACAUUAGGGCCU | 0.356
AGGAAGAAACAAGCCCCCAACACAAGGCUCUGAUACUACUGGUAAAUGUAGGAGAGAAUUAAGAAUCUGUUAAUUAAAAUCCAAACAGAGCUUAUUUCAGUAGUCAAGUU | 0.281

Block 2 — technique: RNA Bind-n-Seq; molecule type: RNA; matrix: in vitro; concentration: not given; relative to: input RNA pool; direction: higher = stronger binding
Target: RING finger protein unkempt homolog, zinc fingers 1-6, GST-SBP tag (UNK, Homo sapiens, UniProt Q9C0B0, residues 30-357)
Sequence of UniProt Q9C0B0 (30-357, looked up): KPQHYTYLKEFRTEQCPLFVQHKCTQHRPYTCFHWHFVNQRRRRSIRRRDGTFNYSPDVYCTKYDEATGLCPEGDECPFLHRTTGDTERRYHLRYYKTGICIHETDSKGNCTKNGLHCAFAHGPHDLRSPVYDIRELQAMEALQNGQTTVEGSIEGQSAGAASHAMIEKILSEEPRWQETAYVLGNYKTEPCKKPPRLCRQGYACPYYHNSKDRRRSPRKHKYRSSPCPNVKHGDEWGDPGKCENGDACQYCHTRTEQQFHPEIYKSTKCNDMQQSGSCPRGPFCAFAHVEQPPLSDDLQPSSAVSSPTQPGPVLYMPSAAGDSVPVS
Notes: RNA with constant flanks, human and mouse sites, ends assumed
All sequences stand within: GGGAGUUCUACAGUCCGACGAUC … CAACAGAGGAUUGAGCAUCA
Oligonucleotide | bound/input enrichment [ratio]
CCAGUUCUCAUUUCAGCUAUGAAGAUUUUUGUAACAACUAAAAACUCAAAAAACCAAGGCAUAGAGGAAGCUUUAAAAAAUCGCAAUUUUACUGUAGAAAAAAUGAGUGCUGAAAUUAAU | 0.209
GCAGACUGUAACCUGCUGCCCAAGCUCCACAUUGUCAAGGUGGUGGCCAAAAAAUACCGCAACUUUGAUAUUCCUAAAGGAAUGACAGGCAUCUGGAGGUACCUGACAAACGCCUACAGC | 0.148
GUUCAUACUGGCGAGAAACCGUAUCAGUGUAAAGAAUGUGAAAAGGCCUUUACACGUGAGUCUCAACUAAUGCGACAUCAGAGAAUUCAUAUCCGUGGCAAAUCUUUGGACUGUAAGGAA | 0.322
GCCGUUAUUAAACGAUUGAUUAGUGUCUUAAACAAAAGCACGGGUGAAGUCACAAAGAAAAAGCCUAAGUUUUUGACUAAAGGCCAGAAUGCAUUGGUAGAGCUACAGACACAAAGACCA | 0.161
UUUUCUUUUUCUUUUUUCUUUCUUUUUUUUUUUUUUUUUUUUUUUGAGUUGUUGUUUGUUUUUAGAUCCACAGUACAUGAGAAUCCUUUUUUGACAAGCCUUGGAAAGCUGACACUGUCU | 2.64
GGGGAGAAACCUUAUGAAUGCGUUCAGUGUGGGAAAUCGUAUAGUCAAAGCUCAAAUCUUUUUAGACAUCAGAGAAGACACAAUGCAGAAAAACUUCUGAAUGUUGUGAAAGUUUAAGAA | 0.683
UACAUUUGUGUCUUCCAGAUCUGGAGAAGAACAGACAUAUUUAAAUCAUUCUUGUUGAACAGUUUUUGUAUGUACAGUAUUAUGGUACUUUUUUUUUUUUAGUAUGAGAACUUUUUUUGU | 1.62
UCUUUUGAGGUAGUGGUGCUGGCUGAGCUGUUUGUAGAGAUGCUGCAGAGGGAUUUUGGCUAUAGAAUUUAUAAGACGCUGCUGAGCCUUCCAGAAAAAGUUGUGUCUCCUCCUGAACCU | 1.05
CCAGAUGGCUGGUUCUCUAAAGGCAGUAACUACAGUGAGAUCCUAGACAAGUACUUUAAGAGCUUUGAUAAUGGCGACUCUCACCUGGACUCCAGUGAAUUCCUGAAAUUCGUGGAGCAG | 0.158
UAUUACUUCUUUUUUUAAAAAAACUACACUUGGGCUCCUUUUUUGUGCUCGACUUUUCCACCUUUUUCCCUCCUUCCUGCGCUGCUGCUUUUUUGAUCUCUUCGACUAAAAAUUUUUUAU | 2.82
UUUCGACAGUUUAUAUUGGUCAUGAAUGCAUUAGAUAACAGAGCUGCACGAAACCACGUGAAUAGGAUGUGUCUGGCCGCUGAUGUGCCUCUCAUUGAGAGCGGGACUGCUGGGUAUCUC | 0.308

Block 3 — technique: RNA Bind-n-Seq; molecule type: RNA; matrix: in vitro; concentration: 1 µM; notes: whole 134-nt RNA, ends assumed; added: 150 mM KCl; relative to: input library; direction: higher = stronger binding
Target: Ras GTPase-activating protein-binding protein 1, RRM domain (G3BP1, Homo sapiens, UniProt Q13283)
Sequence of UniProt Q13283 (whole entry, looked up): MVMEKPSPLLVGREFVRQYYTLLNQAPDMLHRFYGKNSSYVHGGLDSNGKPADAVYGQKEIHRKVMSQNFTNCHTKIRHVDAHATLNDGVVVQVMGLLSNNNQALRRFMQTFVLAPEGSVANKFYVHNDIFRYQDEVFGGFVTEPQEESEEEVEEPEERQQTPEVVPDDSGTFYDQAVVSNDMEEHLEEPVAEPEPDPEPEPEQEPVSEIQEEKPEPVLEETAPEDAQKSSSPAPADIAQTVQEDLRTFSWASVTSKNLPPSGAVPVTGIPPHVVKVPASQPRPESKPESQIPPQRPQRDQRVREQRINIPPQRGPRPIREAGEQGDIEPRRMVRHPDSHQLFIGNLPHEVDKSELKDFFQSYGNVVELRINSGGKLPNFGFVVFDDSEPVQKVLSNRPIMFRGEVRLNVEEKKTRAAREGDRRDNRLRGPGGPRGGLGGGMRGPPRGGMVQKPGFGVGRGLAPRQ
All sequences stand within: GGGAGUUCUACAGUCCGACGAUC … UGGAAUUCUCGGGUGUCAAGG
Oligonucleotide | log2 enrichment
UGUGAGACUGAAGAUUAUGGAGAAAAGUUUGAUGAAAAUGAUGUGAUUACAUGUUUUGCUGUAAGUUAAAGCUAACUUUCUAUGUAUAAA | -0.043
AGUCCUGUGCUACACAUCGUAUGUACCGAAUCGGGGUUUUGGGUUUUGGGGUUUUGGGAAAGUAUUAUGUUACGCCGUUCGGAUCUGCAC | 0.144
UCCUGUGCUACACAUCGUAUGUACCGAAUCGGGAAAAAAGGGGAAAAAAGGAAAAAAGGAAAGUAUUAUGUUACGCCGUUCGGAUCUGCA | -0.0327
UAACUUUAGAGGAGGAUCUGAUGGAUAUGGCAGUGGACGUGGAUUUGGGGAUCGCUAUAAUGGGUAUGGAGGAGGACCUGGAGGUGGCAA | -0.205
UCCUCAAGUCCUGUGCUACACAUCGUAUGUACCGAAUCGGAGGGAGGGAGGGAAAGUAUUAUGUUACGCCGUUCGGAUCUGCACUUCCAG | 0.601
GUCCUGUGCUACACAUCGUAUGUACCGAAUCGGGUUUUUGGGUUUUUGGGUUUUUGGGAAAGUAUUAUGUUACGCCGUUCGGAUCUGCAC | 0.248
AAAAUGCAGGUGGGCAUCUUUGGGAAGUGGGGCAAGGGGGGGAUAGGGAGGGGGGUAACACUUUGGGAACAGGUGGUCCCAGGUCGUUUC | -0.437
GUCCUGUGCUACACAUCGUAUGUACCGAAUCGGGGUUUUGGGUUUUGGGGUUUUGGGGAAAGUAUUAUGUUACGCCGUUCGGAUCUGCAC | 0.325
UCCUCAAGUCCUGUGCUACACAUCGUAUGUACCGAAUCGGAAAGGAGGAGGAAAGUAUUAUGUUACGCCGUUCGGAUCUGCACUUCCAGC | -0.261
UGGCCCUGGUGGCAUGCGGGGAGGAAGAGGUGGCCUCAUGGAUCGAGGUGGUCCCGGUGGAAUGUUCAGAGGUGGCCGUGGUGGAGACAG | 1.19
AGUCCUGUGCUACACAUCGUAUGUACCGAAUCGGAAAGGUUUUUUUGGAAAAAAAGGAAAGUAUUAUGUUACGCCGUUCGGAUCUGCACU | -0.347
CAAGUCCUGUGCUACACAUCGUAUGUACCGAAUCGGAGGAAAAAAAGGAAAAAGGAAAGUAUUAUGUUACGCCGUUCGGAUCUGCACUUC | -0.164
CACAGACAACCCGCACCCACACAGACACAGAGGGAAGGGGUUGGGAUGGGGACAGGGUGCACAGCAGGGCGGGGUAGGACCCCAGCCCCU | -0.119
GCAGGAAGUAAAAACAAAUGGAAAGGCUUCGGAUAGUGGCAGGGGUGGGGGUUGCUAAGGAAAGGGUGGGAUGGGAGUGGGUAAAGAGUU | 1.24

Block 4 — technique: protein binding microarray; molecule type: double-stranded DNA, one strand shown; matrix: in vitro; concentration: not given; relative to: not given; direction: higher = stronger binding
Target: Histone acetyltransferase KAT6A, winged helix 2, GST fusion (KAT6A, Homo sapiens, UniProt Q92794, residues 85-181)
Notes: 8-mer, flanks averaged, mean of 2 arrays, mostly near background
Construct (chain): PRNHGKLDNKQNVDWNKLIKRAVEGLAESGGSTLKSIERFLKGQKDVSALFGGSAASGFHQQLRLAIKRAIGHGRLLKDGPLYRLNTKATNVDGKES
Oligonucleotide | E-score
ATTGAGAG | 0.00365
ACGTGACT | -0.242
AGAACTAG | -0.0188
TATACCCA | -0.141
ACAATATG | -0.0295
ACGGGGCT | -0.158
ATTATGAG | -0.034
AGGGTTGG | 0.055
AGAATTAG | 0.0716
AAGTGTTA | -0.127
GGGCTTCA | -0.141
GAATGTGA | -0.0981
GCCAGTAC | 0.00219
CTTCAACA | -0.0293
AAAGTACT | -0.227
AACAGAGT | 0.0171
TCAGTTAA | -0.105
CAAAAGCA | 0.043
AATTTGCT | 0.0695
GCATCAGC | 0.179
GTCTTAGA | -0.0963
AGTTGGCC | -0.0222
GAATCAGA | 0.0617
ACCATTAG | -0.037
GTGGTAAC | 0.0434

Some of these lines once more (block 3):
Oligonucleotide | log2 enrichment
CACAGACAACCCGCACCCACACAGACACAGAGGGAAGGGGUUGGGAUGGGGACAGGGUGCACAGCAGGGCGGGGUAGGACCCCAGCCCCU | -0.119
AAAAUGCAGGUGGGCAUCUUUGGGAAGUGGGGCAAGGGGGGGAUAGGGAGGGGGGUAACACUUUGGGAACAGGUGGUCCCAGGUCGUUUC | -0.437
GUCCUGUGCUACACAUCGUAUGUACCGAAUCGGGGUUUUGGGUUUUGGGGUUUUGGGGAAAGUAUUAUGUUACGCCGUUCGGAUCUGCAC | 0.325
UGGCCCUGGUGGCAUGCGGGGAGGAAGAGGUGGCCUCAUGGAUCGAGGUGGUCCCGGUGGAAUGUUCAGAGGUGGCCGUGGUGGAGACAG | 1.19
CAAGUCCUGUGCUACACAUCGUAUGUACCGAAUCGGAGGAAAAAAAGGAAAAAGGAAAGUAUUAUGUUACGCCGUUCGGAUCUGCACUUC | -0.164
